Measured values collected from several papers.
± gives the spread as reported.
Chain of UniProt Q12809 (whole entry, looked up): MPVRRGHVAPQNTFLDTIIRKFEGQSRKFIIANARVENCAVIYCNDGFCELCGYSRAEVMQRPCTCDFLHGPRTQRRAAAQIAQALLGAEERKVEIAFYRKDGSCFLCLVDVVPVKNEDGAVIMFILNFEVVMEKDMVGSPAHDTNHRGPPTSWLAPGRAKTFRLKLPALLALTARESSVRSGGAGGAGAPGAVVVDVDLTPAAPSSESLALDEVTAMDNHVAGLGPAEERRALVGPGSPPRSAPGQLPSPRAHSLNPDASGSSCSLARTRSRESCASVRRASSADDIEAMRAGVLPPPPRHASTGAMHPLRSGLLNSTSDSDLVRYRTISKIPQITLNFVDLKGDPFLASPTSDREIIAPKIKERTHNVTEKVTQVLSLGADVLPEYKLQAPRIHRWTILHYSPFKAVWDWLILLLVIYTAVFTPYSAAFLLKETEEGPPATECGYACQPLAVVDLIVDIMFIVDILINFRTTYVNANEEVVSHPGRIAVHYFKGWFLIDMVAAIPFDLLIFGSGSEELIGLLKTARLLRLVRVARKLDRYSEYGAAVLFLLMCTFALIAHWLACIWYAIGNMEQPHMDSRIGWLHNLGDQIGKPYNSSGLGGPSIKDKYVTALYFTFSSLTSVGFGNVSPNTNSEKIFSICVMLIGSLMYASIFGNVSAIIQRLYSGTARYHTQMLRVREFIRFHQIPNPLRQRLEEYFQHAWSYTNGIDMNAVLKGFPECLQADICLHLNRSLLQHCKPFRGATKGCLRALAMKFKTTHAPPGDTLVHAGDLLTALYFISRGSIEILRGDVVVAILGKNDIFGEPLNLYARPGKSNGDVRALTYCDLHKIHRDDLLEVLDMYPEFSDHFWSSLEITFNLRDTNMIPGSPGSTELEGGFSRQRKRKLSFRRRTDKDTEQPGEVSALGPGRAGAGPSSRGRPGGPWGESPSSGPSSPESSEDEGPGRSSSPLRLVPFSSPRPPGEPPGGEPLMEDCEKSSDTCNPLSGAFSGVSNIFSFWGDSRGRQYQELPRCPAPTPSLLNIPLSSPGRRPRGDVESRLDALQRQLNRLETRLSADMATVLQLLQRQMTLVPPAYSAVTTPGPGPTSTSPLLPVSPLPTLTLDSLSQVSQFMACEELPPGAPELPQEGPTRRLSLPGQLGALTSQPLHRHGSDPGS

Compound	tested on	test	test system	conditions	scale	endpoint	value
Nc1ncnc2c([C@@H]3N[C@H](CO)[C@@H](O)[C@H]3O)c[nH]c12	Marburg virus	surface glycoprotein expression	HeLa, Musoke	100 µM, 1 h	–	inhibition	95.5%
Cn1cnc(Cn2c(=O)[nH]/c(=N\c3cc4cn(C)nc4cc3Cl)n(Cc3cc(F)c(F)cc3F)c2=O)n1	–	–	human, moderate renal impairment, plasma	oral, 375 mg single dose	–	MRT	87.5 h
CC[C@H](C)[C@H](NC(=O)[C@H](CC(C)C)NC(=O)[C@H](Cc1c[nH]c2ccccc12)NC(=O)[C@H](CCC(N)=O)NC(=O)[C@@H](NC(=O)[C@H](Cc1ccccc1)NC(=O)[C@H](C)NC(=O)[C@H](CCCCNC(=O)COCCOCCNC(=O)COCCOCCNC(=O)CC[C@H](NC(=O)CCCCCCCCCCCCCCCCCCC(=O)O)C(=O)O)NC(=O)[C@H](CCC(N)=O)NC(=O)[C@H](C)NC(=O)[C@@H](NC(=O)[C@H](CCCCN)NC(=O)[C@H](CC(=O)O)NC(=O)[C@H](CC(C)C)NC(=O)C(C)(C)NC(=O)[C@@H](NC(=O)[C@H](CO)NC(=O)[C@H](Cc1ccc(O)cc1)NC(=O)[C@H](CC(=O)O)NC(=O)[C@H](CO)NC(=O)[C@@H](NC(=O)[C@H](Cc1ccccc1)NC(=O)[C@@H](NC(=O)CNC(=O)[C@H](CCC(=O)O)NC(=O)C(C)(C)NC(=O)[C@@H](N)Cc1ccc(O)cc1)[C@@H](C)O)[C@@H](C)O)[C@@H](C)CC)[C@@H](C)CC)C(C)C)C(=O)N[C@@H](C)C(=O)NCC(=O)NCC(=O)N1CCC[C@H]1C(=O)N[C@@H](CO)C(=O)N[C@@H](CO)C(=O)NCC(=O)N[C@@H](C)C(=O)N1CCC[C@H]1C(=O)N1CCC[C@H]1C(=O)N1CCC[C@H]1C(=O)N[C@@H](CO)C(N)=O	–	–	humans with end-stage renal disease	subcutaneous, 5 mg	relative to: ESRD over normal renal function	Cmax ratio	1.02
C[C@@H]1COCCN1c1cc(C2([S@](C)(=N)=O)CC2)nc(-c2cc[nH]c3nccc2-3)n1	–	–	Japanese advanced solid tumour patients	oral, 160 mg twice daily, CTCAE grade ≥3	–	COVID-19 incidence	0%
CC(=O)c1c(O)c(C)c(O)c(Cc2c(O)c3c(c(C(=O)/C=C/c4ccccc4)c2O)OC(C)(C)C=C3)c1O	KCNH2 (Homo sapiens, UniProt Q12809)	ion current, whole-cell patch clamp	HEK293 expressing hERG1	15 µM, at -120 mV	–	slow deactivation time constant	235 ± 15 ms
C=C[C@@](C)(/C=C/c1ccc(O)cc1)CCC=C(C)C	Spike glycoprotein (Severe acute respiratory syndrome coronavirus 2, UniProt P0DTC2)	binding	–	–	–	Kd	40.7 µM
CC[C@H](C)[C@H](NC(=O)[C@H](CC(C)C)NC(=O)[C@H](Cc1c[nH]c2ccccc12)NC(=O)[C@H](CCC(N)=O)NC(=O)[C@@H](NC(=O)[C@H](Cc1ccccc1)NC(=O)[C@H](C)NC(=O)[C@H](CCCCNC(=O)COCCOCCNC(=O)COCCOCCNC(=O)CC[C@H](NC(=O)CCCCCCCCCCCCCCCCCCC(=O)O)C(=O)O)NC(=O)[C@H](CCC(N)=O)NC(=O)[C@H](C)NC(=O)[C@@H](NC(=O)[C@H](CCCCN)NC(=O)[C@H](CC(=O)O)NC(=O)[C@H](CC(C)C)NC(=O)C(C)(C)NC(=O)[C@@H](NC(=O)[C@H](CO)NC(=O)[C@H](Cc1ccc(O)cc1)NC(=O)[C@H](CC(=O)O)NC(=O)[C@H](CO)NC(=O)[C@@H](NC(=O)[C@H](Cc1ccccc1)NC(=O)[C@@H](NC(=O)CNC(=O)[C@H](CCC(=O)O)NC(=O)C(C)(C)NC(=O)[C@@H](N)Cc1ccc(O)cc1)[C@@H](C)O)[C@@H](C)O)[C@@H](C)CC)[C@@H](C)CC)C(C)C)C(=O)N[C@@H](C)C(=O)NCC(=O)NCC(=O)N1CCC[C@H]1C(=O)N[C@@H](CO)C(=O)N[C@@H](CO)C(=O)NCC(=O)N[C@@H](C)C(=O)N1CCC[C@H]1C(=O)N1CCC[C@H]1C(=O)N1CCC[C@H]1C(=O)N[C@@H](CO)C(N)=O	–	–	healthy subjects, single ascending dose	2.5 mg, titre increase ≥4-fold	–	treatment-boosted ADA positive subjects	16.7%
CC(C)C[C@H](NC(=O)[C@H](CC(=O)O)NC(=O)CNC(=O)[C@H](CCCNC(=N)N)NC(=O)[C@H](CC(C)C)NC(=O)[C@H](CC(N)=O)NC(=O)[C@@H]1CCCN1C(=O)[C@@H](NC(=O)[C@H](C)NC(=O)[C@H](CC(N)=O)NC(=O)CCOCCOCCOCCOCCOCCOCCOCCOCCOCCOCCOCCOCCOCCOCCOCCOCCOCCOCCOCCOCCOCCOCCOCCOCCOCCOCCOCCOCCNC(=O)CCOCCOCCOCCOCCOCCOCCOCCOCCOCCOCCOCCOCCOCCOCCOCCOCCOCCOCCOCCOCCOCCOCCOCCOCCOCCOCCOCCOCCNC(=O)c1ccc(F)cc1)C(C)C)C(=O)N[C@@H](CCC(N)=O)C(=O)N[C@H](C(=O)N[C@@H](CC(C)C)C(=O)N[C@@H](C)C(=O)N[C@@H](CCC(N)=O)C(=O)N[C@@H](CCCCN)C(=O)N[C@H](C(=O)N[C@@H](C)C(=O)N[C@@H](CCCNC(=N)N)C(=O)N[C@H](C(N)=O)[C@@H](C)O)C(C)C)C(C)C [fluorine-18 labelled]	–	–	male athymic nu/nu mouse, BxPC-3 xenograft, kidney	iv, 1 to 4 h	–	kidney uptake	~42 %ID/g
CC(C)(C)[C@H](NC(=O)C(F)(F)F)C(=O)N1C[C@H]2[C@@H]([C@H]1C(=O)N[C@H](C#N)C[C@@H]1CCNC1=O)C2(C)C	–	–	human, fasted	oral, 1500 mg single dose, 28 days, no ritonavir	–	participants with adverse events	1%
CN1CCc2nc(C(=O)N[C@@H]3C[C@@H](C(=O)N(C)C)CC[C@@H]3NC(=O)C(=O)Nc3ccc(Cl)cn3)sc2C1.Cc1ccc(S(=O)(=O)O)cc1.O	Replicase polyprotein 1ab, main protease (rep, Severe acute respiratory syndrome coronavirus 2, UniProt P0DTD1)	reporter gene (mKate2), inhibitor	–	20 µM	–	inhibition	-0.475%
COP(=O)(OC)OC=C(Cl)Cl	rat CYP2C	tolbutamide hydroxylation, non-competitive inhibitor	rat Sprague-Dawley, liver microsomes	30 min, pH 7.4, with: tolbutamide 1 to 10 mM	–	Ki	> 5000 µM
CNC(=O)[C@@H](NC(=O)[C@H](CC(C)C)[C@H](O)C(=O)NO)C(C)(C)C	snake venom metalloproteinase (Daboia russelii venom)	protease activity, inhibitor	–	with: azocasein substrate	–	complete inhibition concentration	0.1 µM

A few entries again:
Compound	tested on	test	test system	conditions	scale	endpoint	value
CC[C@H](C)[C@H](NC(=O)[C@H](CC(C)C)NC(=O)[C@H](Cc1c[nH]c2ccccc12)NC(=O)[C@H](CCC(N)=O)NC(=O)[C@@H](NC(=O)[C@H](Cc1ccccc1)NC(=O)[C@H](C)NC(=O)[C@H](CCCCNC(=O)COCCOCCNC(=O)COCCOCCNC(=O)CC[C@H](NC(=O)CCCCCCCCCCCCCCCCCCC(=O)O)C(=O)O)NC(=O)[C@H](CCC(N)=O)NC(=O)[C@H](C)NC(=O)[C@@H](NC(=O)[C@H](CCCCN)NC(=O)[C@H](CC(=O)O)NC(=O)[C@H](CC(C)C)NC(=O)C(C)(C)NC(=O)[C@@H](NC(=O)[C@H](CO)NC(=O)[C@H](Cc1ccc(O)cc1)NC(=O)[C@H](CC(=O)O)NC(=O)[C@H](CO)NC(=O)[C@@H](NC(=O)[C@H](Cc1ccccc1)NC(=O)[C@@H](NC(=O)CNC(=O)[C@H](CCC(=O)O)NC(=O)C(C)(C)NC(=O)[C@@H](N)Cc1ccc(O)cc1)[C@@H](C)O)[C@@H](C)O)[C@@H](C)CC)[C@@H](C)CC)C(C)C)C(=O)N[C@@H](C)C(=O)NCC(=O)NCC(=O)N1CCC[C@H]1C(=O)N[C@@H](CO)C(=O)N[C@@H](CO)C(=O)NCC(=O)N[C@@H](C)C(=O)N1CCC[C@H]1C(=O)N1CCC[C@H]1C(=O)N1CCC[C@H]1C(=O)N[C@@H](CO)C(N)=O	–	–	healthy subjects, single ascending dose	2.5 mg, titre increase ≥4-fold	–	treatment-boosted ADA positive subjects	16.7%
